Measured values pooled from the literature.
Lines come from different studies, so protocols differ. ± marks the error that the study gave.
UniProt P21554, sequence (whole entry, unmodified, looked up): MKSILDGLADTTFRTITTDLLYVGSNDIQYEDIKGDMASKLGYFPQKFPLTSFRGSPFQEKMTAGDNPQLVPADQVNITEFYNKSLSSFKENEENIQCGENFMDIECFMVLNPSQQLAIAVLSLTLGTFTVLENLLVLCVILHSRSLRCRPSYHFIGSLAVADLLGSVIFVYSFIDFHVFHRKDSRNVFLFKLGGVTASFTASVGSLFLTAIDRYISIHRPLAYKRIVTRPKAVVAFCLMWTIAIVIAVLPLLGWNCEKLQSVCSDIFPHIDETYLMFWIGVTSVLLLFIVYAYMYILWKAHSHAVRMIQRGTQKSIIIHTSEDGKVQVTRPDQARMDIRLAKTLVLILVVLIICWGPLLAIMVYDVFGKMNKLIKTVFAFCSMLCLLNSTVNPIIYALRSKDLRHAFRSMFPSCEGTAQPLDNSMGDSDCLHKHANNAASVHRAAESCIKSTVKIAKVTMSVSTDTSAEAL
UniProt P47870, sequence (whole entry, unmodified, looked up): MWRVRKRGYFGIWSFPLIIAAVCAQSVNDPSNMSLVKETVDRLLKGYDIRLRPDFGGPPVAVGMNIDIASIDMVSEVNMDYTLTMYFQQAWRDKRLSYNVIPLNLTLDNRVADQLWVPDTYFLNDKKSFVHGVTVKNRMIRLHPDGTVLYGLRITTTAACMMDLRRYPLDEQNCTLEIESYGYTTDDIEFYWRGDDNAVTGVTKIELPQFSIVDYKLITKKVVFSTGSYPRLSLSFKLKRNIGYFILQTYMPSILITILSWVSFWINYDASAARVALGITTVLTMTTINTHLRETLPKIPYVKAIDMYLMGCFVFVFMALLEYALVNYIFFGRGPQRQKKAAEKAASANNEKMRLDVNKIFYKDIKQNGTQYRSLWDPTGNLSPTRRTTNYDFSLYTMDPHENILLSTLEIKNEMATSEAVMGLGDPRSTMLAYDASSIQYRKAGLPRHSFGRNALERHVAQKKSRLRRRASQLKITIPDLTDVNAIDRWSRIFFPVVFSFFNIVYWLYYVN
UniProt P29350, sequence (whole entry, looked up): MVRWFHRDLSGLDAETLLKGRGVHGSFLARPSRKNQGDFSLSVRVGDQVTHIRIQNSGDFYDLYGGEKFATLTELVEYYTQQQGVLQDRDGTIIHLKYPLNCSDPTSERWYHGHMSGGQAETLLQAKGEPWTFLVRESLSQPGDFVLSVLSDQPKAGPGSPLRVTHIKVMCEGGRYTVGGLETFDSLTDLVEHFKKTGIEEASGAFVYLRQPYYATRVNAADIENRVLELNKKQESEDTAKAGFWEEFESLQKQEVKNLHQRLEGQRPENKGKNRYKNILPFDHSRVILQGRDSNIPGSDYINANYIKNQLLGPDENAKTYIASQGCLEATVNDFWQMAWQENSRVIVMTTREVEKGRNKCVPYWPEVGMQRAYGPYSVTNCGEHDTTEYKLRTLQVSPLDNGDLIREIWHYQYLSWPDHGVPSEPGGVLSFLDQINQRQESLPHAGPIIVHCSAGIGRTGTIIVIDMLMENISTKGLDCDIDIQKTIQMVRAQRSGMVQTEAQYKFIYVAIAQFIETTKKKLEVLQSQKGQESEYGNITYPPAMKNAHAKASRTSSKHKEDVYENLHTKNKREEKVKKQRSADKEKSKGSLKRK
UniProt P14867, sequence (whole entry, unmodified, looked up): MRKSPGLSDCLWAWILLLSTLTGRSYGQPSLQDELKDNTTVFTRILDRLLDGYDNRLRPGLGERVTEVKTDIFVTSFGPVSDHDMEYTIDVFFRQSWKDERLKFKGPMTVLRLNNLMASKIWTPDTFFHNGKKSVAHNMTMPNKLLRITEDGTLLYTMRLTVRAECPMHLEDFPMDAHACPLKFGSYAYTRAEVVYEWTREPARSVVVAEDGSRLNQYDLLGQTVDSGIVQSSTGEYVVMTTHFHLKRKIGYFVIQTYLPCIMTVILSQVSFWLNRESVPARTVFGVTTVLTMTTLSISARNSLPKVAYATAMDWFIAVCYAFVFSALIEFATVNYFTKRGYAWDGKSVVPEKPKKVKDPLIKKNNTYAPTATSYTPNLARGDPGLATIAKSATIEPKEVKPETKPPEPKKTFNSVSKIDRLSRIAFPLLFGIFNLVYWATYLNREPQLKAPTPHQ
UniProt I6Y8I5, sequence (whole entry, looked up): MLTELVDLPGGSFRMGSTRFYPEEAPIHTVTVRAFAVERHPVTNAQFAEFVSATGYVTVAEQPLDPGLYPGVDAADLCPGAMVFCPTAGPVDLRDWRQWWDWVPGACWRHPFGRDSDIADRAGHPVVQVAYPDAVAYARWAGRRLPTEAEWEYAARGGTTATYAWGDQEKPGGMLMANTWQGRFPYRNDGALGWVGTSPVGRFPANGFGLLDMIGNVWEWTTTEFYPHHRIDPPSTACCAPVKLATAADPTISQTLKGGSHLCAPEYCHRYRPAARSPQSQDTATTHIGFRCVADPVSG
UniProt P06133, sequence (whole entry, looked up): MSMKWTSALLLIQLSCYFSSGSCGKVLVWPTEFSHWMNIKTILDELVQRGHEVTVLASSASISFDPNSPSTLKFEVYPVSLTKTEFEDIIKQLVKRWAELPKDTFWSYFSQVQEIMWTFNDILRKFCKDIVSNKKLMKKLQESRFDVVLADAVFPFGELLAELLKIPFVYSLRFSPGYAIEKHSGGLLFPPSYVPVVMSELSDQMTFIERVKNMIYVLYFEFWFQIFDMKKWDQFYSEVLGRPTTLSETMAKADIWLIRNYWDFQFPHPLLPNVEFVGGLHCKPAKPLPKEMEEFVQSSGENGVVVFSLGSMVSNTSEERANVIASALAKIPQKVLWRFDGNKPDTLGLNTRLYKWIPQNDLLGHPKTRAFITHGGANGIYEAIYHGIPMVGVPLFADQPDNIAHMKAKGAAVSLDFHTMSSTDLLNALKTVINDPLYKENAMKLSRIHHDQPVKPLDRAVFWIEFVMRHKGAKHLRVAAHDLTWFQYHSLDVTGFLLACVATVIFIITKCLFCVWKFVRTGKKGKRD
UniProt P34972, sequence (whole entry, unmodified, looked up): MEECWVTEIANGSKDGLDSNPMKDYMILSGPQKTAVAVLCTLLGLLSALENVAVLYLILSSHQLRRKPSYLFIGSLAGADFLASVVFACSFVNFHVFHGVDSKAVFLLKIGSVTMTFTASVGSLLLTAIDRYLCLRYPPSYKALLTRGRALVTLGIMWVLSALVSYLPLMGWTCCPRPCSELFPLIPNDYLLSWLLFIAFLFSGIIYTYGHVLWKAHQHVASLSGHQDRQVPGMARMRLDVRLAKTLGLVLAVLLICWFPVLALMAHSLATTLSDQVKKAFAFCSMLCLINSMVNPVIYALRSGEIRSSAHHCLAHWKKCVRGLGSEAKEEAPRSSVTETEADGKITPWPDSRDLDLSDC
UniProt P18507, sequence (whole entry, unmodified, looked up): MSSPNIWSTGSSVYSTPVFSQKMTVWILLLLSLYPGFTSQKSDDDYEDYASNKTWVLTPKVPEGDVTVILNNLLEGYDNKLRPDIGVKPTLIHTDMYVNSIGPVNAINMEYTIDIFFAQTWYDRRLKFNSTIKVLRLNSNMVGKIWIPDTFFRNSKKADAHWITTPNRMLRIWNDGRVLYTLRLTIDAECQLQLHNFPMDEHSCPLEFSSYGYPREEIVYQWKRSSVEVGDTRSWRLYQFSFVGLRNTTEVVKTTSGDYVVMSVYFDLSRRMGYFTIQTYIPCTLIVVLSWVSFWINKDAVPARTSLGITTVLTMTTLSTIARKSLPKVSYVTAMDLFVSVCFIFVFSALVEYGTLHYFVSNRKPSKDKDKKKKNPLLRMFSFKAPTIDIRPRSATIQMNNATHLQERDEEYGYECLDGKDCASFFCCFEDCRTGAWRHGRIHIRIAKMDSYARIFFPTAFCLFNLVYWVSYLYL
UniProt P36544, sequence (whole entry, looked up): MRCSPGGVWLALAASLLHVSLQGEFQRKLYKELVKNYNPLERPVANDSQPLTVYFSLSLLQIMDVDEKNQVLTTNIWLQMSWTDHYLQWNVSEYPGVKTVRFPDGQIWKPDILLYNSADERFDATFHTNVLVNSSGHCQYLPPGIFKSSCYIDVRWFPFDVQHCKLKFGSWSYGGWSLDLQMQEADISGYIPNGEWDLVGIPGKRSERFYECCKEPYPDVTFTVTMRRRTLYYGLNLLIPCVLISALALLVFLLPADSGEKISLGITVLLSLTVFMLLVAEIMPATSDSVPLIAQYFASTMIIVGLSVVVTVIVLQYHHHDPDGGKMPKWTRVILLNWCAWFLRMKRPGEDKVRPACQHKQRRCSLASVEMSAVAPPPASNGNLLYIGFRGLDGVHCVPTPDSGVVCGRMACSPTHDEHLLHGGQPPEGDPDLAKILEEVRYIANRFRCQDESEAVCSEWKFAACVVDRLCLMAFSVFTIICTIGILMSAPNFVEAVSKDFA

Structure (SMILES)	target	test	system	conditions	how to read	endpoint	result
CCOC(=O)C1C(OC(c2ccc(Cl)cc2)c2ccc(Cl)cc2)CC2CCC1N2C (single isomer, unassigned)	rat GABAA receptor agonist site	binding, radioligand displacement	–	inactive if below 75% at 10000 nM, with: [3H]muscimol	–	Ki	inactive
C=C(C)C1C2OC(=O)C1C1(O)CC3OC34C(=O)OC2C14C (centres unmarked)	GABA-A receptor; alpha-1/beta-2/gamma-2 (Homo sapiens, UniProt P14867+P18507+P47870, V284A)	inhibitor, two-electrode voltage clamp	Xenopus oocytes	with: GABA at EC50	–	Hill coefficient	0.95 ± 0.09
C[N+](C)(C)CCOC(N)=O	Neuronal acetylcholine receptor subunit alpha-7 (CHRNA7, Homo sapiens, UniProt P36544)	binding	–	24 or 48 h, 37 °C	–	Hill coefficient	1.47 ± 0.07
Cc1ccccc1N1C(=O)/C(=C/c2ccc(OCc3cccc(C(=O)O)c3)cc2)C(=O)NC1=S	Tyrosine-protein phosphatase non-receptor type 6 (PTPN6, Homo sapiens, UniProt P29350)	phosphatase activity, inhibitor	–	–	reference: LYP IC50 over PTPN6 IC50 inverse	selectivity ratio	46 fold
Cc1sc2c(c1C)C(c1ccc(Cl)cc1)=N[C@@H](CC(=O)OC(C)(C)C)c1nnc(C)n1-2	Bromodomain and WD repeat-containing protein 1, bromodomain 2 (BRWD1, Homo sapiens, UniProt Q9NSI6)	ITC	–	25 µM, 15 °C, protein 300 µM	–	binding	no binding
CCCCCn1cc(C(=O)c2ccc3c(c2)CC(C)(C)C3)c2ccccc21	Cannabinoid receptor 1 (CNR1, Homo sapiens, UniProt P21554, L359V)	Gαi1 engagement, agonist, BRET	–	–	reference: reference agonist at wild-type CB1	Emax	40.3 ± 4.7%
CCCCCc1cc(O)c2c(c1)OC(C)(C)C1CCC(C)=CC21 (single isomer, unassigned; (-))	UDP-glucuronosyltransferase 2B4 (UGT2B4, Homo sapiens, UniProt P06133)	codeine glucuronidation	HEK293 microsomes	100 µM, with: codeine	reference: untreated	inhibition	79%
CCCCCn1cc(C(=O)c2cccc3ccccc23)c2ccccc21	Cannabinoid receptor 2 (CNR2, Homo sapiens, UniProt P34972, V261L)	Gαi1 engagement, agonist, BRET	–	–	reference: reference agonist at wild-type CB2	Emax	29.9 ± 4.1%
CSCC[C@H](NC(=O)[C@H](CCSC)NC(=O)[C@H](CCSC)NC(=O)[C@@H](N)CO)C(=O)N[C@@H](CS)C(=O)O	Formylglycine-generating enzyme (Mycobacterium tuberculosis, UniProt I6Y8I5)	enzyme activity, inhibitor, LC-MS	–	100 µM, 10 min, with: pentapeptide substrate	–	inhibition	> 50%
CCCCCn1cc(C(=O)c2ccc3ccccc3c2)c2ccccc21	Cannabinoid receptor 1 (CNR1, Homo sapiens, UniProt P21554, I267L/L193I/L359V)	Gαi1 engagement, agonist, BRET	–	CB1 triple mutant	reference: wild type receptor	Emax increase	~40%
N=C(N)Nc1ccc2[nH]c3c(c2c1)C[C@@]1(O)[C@H]2Cc4ccc(O)c5c4[C@@]1(CCN2CC1CC1)[C@H]3O5	Carbamate kinase (Giardia intestinalis, UniProt A8BB85)	enzyme activity, inhibitor, luminescence, ATP detection	Giardia lamblia	–	–	maximal inhibition	86%
